Published values from different studies.
Protocols differ between the studies behind these lines. ± marks the error that the study gave.
Organism: Klebsiella pneumoniae

SMILES | assay | test system | conditions | MIC
COc1ccc2ccc3c(c2c1)C=[N+]1C2CCCCC2[N+]2=Cc4ccccc4[O][Au-]21[O]3.F[P-](F)(F)(F)(F)F (centres unmarked) | bacterial growth, broth microdilution | carbapenem-resistant clinical isolate | 24 h | > 20 µM
CC(C)C[C@H](NC(=O)[C@H](Cc1ccc(O)cc1)NC(=O)[C@@H]1CCCN1C(=O)[C@H](CCCNC(=N)N)NC(=O)[C@@H]1CCCN1C(=O)[C@H](CCCCN)NC(=O)[C@H](CC(=O)O)NC(=O)[C@@H]1CCCN1C(=O)[C@H](CCCNC(=N)N)NC(=O)C1(N)CCCCC1)C(=O)N1CCC[C@H]1C(=O)N[C@@H](CCCNC(=N)N)C(=O)N1CCC[C@H]1C(=O)N[C@@H](CCCNC(=N)N)C(=O)N1CCC[C@H]1C(=O)N1CCC[C@H]1C(=O)N[C@@H](CCCNC(=N)N)C(=O)N1CCC[C@H]1C(=O)N[C@H](C(=O)N[C@@H](CCCNC(=N)N)C(=O)N[C@@H](CSCc1ccc(CSC[C@H](NC(=O)[C@H](CCCNC(=N)N)NC(=O)[C@@H](NC(=O)[C@@H]2CCCN2C(=O)[C@H](CCCNC(=N)N)NC(=O)[C@@H]2CCCN2C(=O)[C@@H]2CCCN2C(=O)[C@H](CCCNC(=N)N)NC(=O)[C@@H]2CCCN2C(=O)[C@H](CCCNC(=N)N)NC(=O)[C@@H]2CCCN2C(=O)[C@H](CC(C)C)NC(=O)[C@H](Cc2ccc(O)cc2)NC(=O)[C@@H]2CCCN2C(=O)[C@H](CCCNC(=N)N)NC(=O)[C@@H]2CCCN2C(=O)[C@H](CCCCN)NC(=O)[C@H](CC(=O)O)NC(=O)[C@@H]2CCCN2C(=O)[C@H](CCCNC(=N)N)NC(=O)C2(N)CCCCC2)C(C)C)C(=O)NN)cc1)C(=O)NN)C(C)C | bacterial growth | ATCC 13883, 100% Mueller-Hinton broth | 90 min, 37 °C, strain ATCC 13883 | 3.5 ± 0.6 µg/mL
CC(C)C[C@H](NC(=O)CN)C(=O)N[C@@H](CC(C)C)C(=O)N[C@@H](CCCCN)C(=O)N[C@@H](CC(C)C)C(=O)N[C@@H](CC(C)C)C(=O)N[C@@H](CCCCN)C(=O)N[C@@H](CCCCN)C(=O)N[C@@H](CC(C)C)C(=O)N[C@@H](CC(C)C)C(=O)N[C@@H](CCCCN)C(=O)N[C@@H](CC(C)C)C(=O)N[C@@H](CC(C)C)C(=O)N[C@@H](CCCCN)C(N)=O | – | ATCC 700603, CAMHB | 18 h, 37 °C | > 19 µM
CC[C@H](C)[C@H](NC(=O)[C@@H](CCCNC(=N)N)NC(=O)[C@H](CCCNC(=N)N)NC(=O)[C@H](CCCNC(=N)N)NC(=O)[C@H](Cc1c[nH]c2ccccc12)NC(=O)[C@H](CCCNC(=N)N)NC(=O)[C@@H]1CCCN1C(=O)[C@H](CCCNC(=N)N)NC(=O)[C@@H]1CCCN1C(=O)[C@H](CC(C)C)NC(=O)[C@H](Cc1ccc(O)cc1)NC(=O)[C@@H]1CCCN1C(=O)[C@@H]1CCCN1C(=O)[C@H](CCCCN)NC(=O)[C@H](CC(=O)O)NC(=O)[C@@H](N)C(C)C)C(=O)N[C@@H](Cc1ccc(O)cc1)C(=O)N[C@@H](CC(N)=O)C(=O)N[C@H](CCCNC(=N)N)C(N)=O | broth microdilution | DSM 681 | 18 h | 2 µg/mL
COc1ccc2ccc3c(c2c1)C=[N+]1C2CCCCC2[N+]2=Cc4ccc(-c5ccccc5)cc4[O][Au-]21[O]3.F[P-](F)(F)(F)(F)F (centres unmarked) | bacterial growth, broth microdilution | carbapenem-resistant clinical isolate | 24 h | > 20 µM
CN[C@H](CC(C)C)C(=O)N[C@H]1C(=O)N[C@@H](CC(N)=O)C(=O)N[C@H]2C(=O)N[C@H]3C(=O)N[C@H](C(=O)N[C@H](C(=O)O)c4cc(O)cc(O)c4-c4cc3ccc4O)[C@H](O)c3ccc(c(Cl)c3)Oc3cc2cc(c3O[C@@H]2O[C@H](CO)[C@@H](O)[C@H](O)[C@H]2O[C@H]2C[C@](C)(NCc3ccc(OCc4cn(CCOCCOCCOCCC(=O)N[C@H](C(=O)N[C@@H](CCN)C(=O)N[C@H]5CCNC(=O)[C@H]([C@@H](C)O)NC(=O)[C@H](CCN)NC(=O)[C@H](CCN)NC(=O)[C@H](CC(C)C)NC(=O)[C@@H](CC(C)C)NC(=O)[C@H](CCN)NC5=O)[C@@H](C)O)nn4)c(OC)c3)[C@H](O)[C@H](C)O2)Oc2ccc(cc2Cl)[C@H]1O | broth microdilution | ATCC 27736 | 18 to 20 h, 37 °C, 0.002% polysorbate 80 | 32 µg/mL
C[C@@](O)(C(F)F)[C@H](NC(=O)c1ccc(C#CC#CC2CC2)cc1)C(=O)NO | broth microdilution | 10031, CAMHB with 50% mouse plasma | – | 0.01 µg/mL
c1ccc(CN2CCOCCOCCN(CCCCCCCCCCCCCCN3CCOCCOCCN(CCCCCCCCCCCCCCN4CCOCCOCCN(Cc5ccccc5)CCOCCOCC4)CCOCCOCC3)CCOCCOCC2)cc1 | – | ESBL SHV-12 | – | 24 µM
CC(C)[C@@H]1NC(=O)[C@@H]2CCCN2C(=O)[C@@H](C)NC(=O)[C@H](CO)NC(=O)[C@H](C)NC(=O)[C@H](C(C)(C)C)NC(=O)[C@H](CCO)NC(=O)[C@H](Cc2c[nH]c3ccccc23)NC(=O)[C@H](CCO)NC(=O)[C@@H](CCN)NC(=O)[C@H](CCC(N)=O)NC(=O)[C@H](CCN)NC(=O)[C@H](Cc2ccc(O)cc2)NC(=O)[C@H]([C@@H](C)O)NC1=O | broth microdilution | ATCC 11228, CAMHB with polysorbate-80 | 16 h | > 64 µg/mL
CC[C@H](C)[C@H](NC(=O)[C@H](C)NC(=O)[C@@H](NC(=O)[C@H](CC(=O)O)NC(=O)[C@H](CCCCN)NC(=O)[C@H](CO)NC(=O)[C@@H](NC(=O)[C@H](CC(N)=O)NC(=O)[C@H](C)NC(=O)[C@@H](NC(=O)[C@H](CCC(=O)O)NC(=O)[C@H](CCCCN)NC(=O)[C@@H](NC(=O)[C@@H](NC(=O)[C@H](Cc1c[nH]cn1)NC(=O)[C@H](CCCCN)NC(=O)[C@@H](NC(=O)[C@H](CCCCN)NC(=O)[C@H](CCCCN)NC(=O)[C@@H](NC(=O)[C@H](CC(C)C)NC(=O)[C@H](CCCCN)NC(=O)[C@H](CC(N)=O)NC(=O)[C@H](Cc1ccccc1)NC(=O)[C@H](CCCNC(=N)N)NC(=O)[C@H](CCCCN)NC(=O)[C@H](CCCNC(=N)N)NC(=O)[C@H](Cc1ccccc1)NC(=O)CN)C(C)C)C(C)C)[C@@H](C)O)[C@@H](C)CC)[C@@H](C)O)C(C)C)C(C)C)C(=O)N[C@H](C(=O)N[C@@H](C)C(=O)NCC(=O)N[C@@H](CO)C(=O)NCC(=O)N[C@H](C(=O)N[C@@H](C)C(=O)N[C@H](C(=O)NCC(=O)N[C@@H](C)C(=O)N[C@@H](C)C(=O)N[C@@H](CCSC)C(N)=O)C(C)C)C(C)C)C(C)C | broth microdilution | DSM 30104, CAMHB | – | 4 µg/mL
COc1ccc2c(c1)C=[N+]1C3CCCCC3[N+]3=Cc4c(ccc5ccc(OC)cc45)[O][Au-]13[O]2.F[P-](F)(F)(F)(F)F (centres unmarked) | bacterial growth, broth microdilution | carbapenem-resistant | 24 h | > 20 µM
Oc1ccc(Cl)cc1-c1nc2c(C(F)(F)F)cc(C(F)(F)F)cc2[nH]1 | – | B9 | – | > 200 µM
CC(C)[C@H](NC(=O)[C@H](CCCCN)NC(=O)[C@H](CCCNC(=N)N)NC(=O)[C@@H](NC(=O)[C@H](C)NC(=O)[C@H](CC(N)=O)NC(=O)[C@H](CCCNC(=N)N)NC(=O)[C@@H](NC(=O)[C@H](CCCCN)NC(=O)[C@H](CCCCN)NC(=O)[C@@H](NC(=O)[C@@H](NC(=O)[C@H](CCCNC(=N)N)NC(=O)[C@H](CCCNC(=N)N)NC(=O)[C@H](Cc1c[nH]c2ccccc12)NC(=O)[C@H](Cc1c[nH]c2ccccc12)NC(=O)CN)[C@@H](C)O)C(C)C)C(C)C)C(C)C)C(=O)O | – | ATCC 10031 | 18 h, 37 °C | 32 µg/mL
COc1ccc2ccc3c(c2c1)C=[N+]1C2CCCCC2[N+]2=Cc4ccc(C)cc4[O][Au-]21[O]3.F[P-](F)(F)(F)(F)F (centres unmarked) | bacterial growth, broth microdilution | carbapenem-resistant clinical isolate | 24 h | > 20 µM
CC(C)[C@H](NC(=O)[C@H](CCCCN)NC(=O)[C@H](CCCNC(=N)N)NC(=O)CNC(=O)[C@H](C)NC(=O)[C@H](CC(N)=O)NC(=O)[C@H](CCCNC(=N)N)NC(=O)[C@@H](NC(=O)[C@H](CCCCN)NC(=O)[C@H](CC(=O)O)NC(=O)[C@@H](NC(=O)[C@@H](NC(=O)[C@H](CCCNC(=N)N)NC(=O)[C@H](CCCNC(=N)N)NC(=O)[C@H](Cc1c[nH]c2ccccc12)NC(=O)[C@H](Cc1c[nH]c2ccccc12)NC(=O)CN)[C@@H](C)O)C(C)C)C(C)C)C(=O)O | – | ATCC 10031 | 18 h, 37 °C | > 256 µg/mL
CC(C)C[C@H](NC(=O)[C@H](Cc1ccc(O)cc1)NC(=O)[C@@H]1CCCN1C(=O)[C@H](CCCNC(=N)N)NC(=O)[C@@H]1CCCN1C(=O)[C@H](CCCCN)NC(=O)[C@H](CC(=O)O)NC(=O)[C@@H]1CCCN1C(=O)[C@H](CCCNC(=N)N)NC(=O)C1(N)CCCCC1)C(=O)N1CCC[C@H]1C(=O)N[C@@H](CCCNC(=N)N)C(=O)N1CCC[C@H]1C(=O)N[C@@H](CCCNC(=N)N)C(=O)N1CCC[C@H]1C(=O)N1CCC[C@H]1C(=O)N[C@@H](CCCNC(=N)N)C(=O)N1CCC[C@H]1C(=O)N[C@H](C(=O)N[C@@H](CCCNC(=N)N)C(=O)N[C@@H](CSc1c(F)c(F)c(-c2c(F)c(F)c(SC[C@H](NC(=O)[C@H](CCCNC(=N)N)NC(=O)[C@@H](NC(=O)[C@@H]3CCCN3C(=O)[C@H](CCCNC(=N)N)NC(=O)[C@@H]3CCCN3C(=O)[C@@H]3CCCN3C(=O)[C@H](CCCNC(=N)N)NC(=O)[C@@H]3CCCN3C(=O)[C@H](CCCNC(=N)N)NC(=O)[C@@H]3CCCN3C(=O)[C@H](CC(C)C)NC(=O)[C@H](Cc3ccc(O)cc3)NC(=O)[C@@H]3CCCN3C(=O)[C@H](CCCNC(=N)N)NC(=O)[C@@H]3CCCN3C(=O)[C@H](CCCCN)NC(=O)[C@H](CC(=O)O)NC(=O)[C@@H]3CCCN3C(=O)[C@H](CCCNC(=N)N)NC(=O)C3(N)CCCCC3)C(C)C)C(=O)NN)c(F)c2F)c(F)c1F)C(=O)NN)C(C)C | bacterial growth | ATCC 13883, 100% Mueller-Hinton broth | 90 min, 37 °C, strain ATCC 13883 | 2.8 ± 0.9 µg/mL
COc1ccc2ccc3c(c2c1)C=[N+]1C2CCCCC2[N+]2=Cc4ccc(F)cc4[O][Au-]21[O]3.F[P-](F)(F)(F)(F)F (centres unmarked) | bacterial growth, broth microdilution | carbapenem-resistant | 24 h | 10 µM
